# Results gathered from unrelated publications.
# Target: Non-receptor tyrosine-protein kinase TNK1 (TNK1, Homo sapiens, UniProt Q13470)
# Sequence (Q13470 1-666, as in one of the studies): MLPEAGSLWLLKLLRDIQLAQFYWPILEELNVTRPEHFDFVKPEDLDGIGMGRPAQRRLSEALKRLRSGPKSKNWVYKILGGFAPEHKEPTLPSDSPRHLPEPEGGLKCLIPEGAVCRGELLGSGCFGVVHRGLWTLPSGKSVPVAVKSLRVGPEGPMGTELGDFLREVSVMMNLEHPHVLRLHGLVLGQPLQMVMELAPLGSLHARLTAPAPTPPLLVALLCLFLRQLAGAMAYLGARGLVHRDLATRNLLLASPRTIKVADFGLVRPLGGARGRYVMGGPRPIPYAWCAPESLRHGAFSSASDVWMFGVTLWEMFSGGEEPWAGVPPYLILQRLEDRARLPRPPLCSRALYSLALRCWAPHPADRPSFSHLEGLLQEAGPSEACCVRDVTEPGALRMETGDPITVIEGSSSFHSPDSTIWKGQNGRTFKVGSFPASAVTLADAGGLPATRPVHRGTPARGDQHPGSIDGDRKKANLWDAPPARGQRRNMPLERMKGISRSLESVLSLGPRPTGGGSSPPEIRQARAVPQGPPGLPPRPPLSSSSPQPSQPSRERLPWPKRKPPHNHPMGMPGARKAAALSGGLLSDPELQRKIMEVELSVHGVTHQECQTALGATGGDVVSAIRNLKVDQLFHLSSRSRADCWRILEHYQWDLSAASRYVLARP
Structure (SMILES),assay,test system,conditions,scale,measurement,result
NC(=O)C[C@H]1CCc2sc3ncnc(O[C@H]4CC[C@H](N5CCOCC5)CC4)c3c21,"enzyme activity, inhibitor",,10 µM,,inhibition,10%
COc1cc(Nc2nc(C)cc(-c3cnn4nc(OC)ccc34)n2)cc(C(F)(F)F)c1,"binding, competition with immobilised ligand",,1 µM,,remaining binding,80%
CNC1C[S+]2CC[S+]3CC[S+](C1)[Ru-4]321([N]=C=S)[n]2c3ccc(OC)cc3c3c4c(c5cc(F)c[n+]1c5c32)C(=O)NC4=O (stereo not drawn),KinomeScan,,0.1 µM,reference: untreated,remaining binding,100%
CCN1CCN(Cc2ccc(NC(=O)c3ccc(C)c(NC(=O)c4cncc(-c5cnn(C)c5)c4)c3)cc2C(F)(F)F)CC1,"binding, competition with immobilised ligand",,1 µM,,remaining binding,49%
C=CC(=O)N1CCCC(n2c(=O)c3ncccc3n(Cc3ccc(Oc4ccccc4)cc3)c2=O)C1 (stereo not drawn),"cell-free assay, competition with immobilised ligand",,1 µM,,remaining binding,94%
COC(=O)[C@@]1(C)C=C(C(=O)Nc2cccc(C(=O)Nc3ccc(Nc4nccc(-c5cccnc5)n4)c(C)c3)c2)C(=O)CC1,"binding, competition with immobilised ligand",,1 µM,,remaining binding,69%
CNC(=O)C1CCN(c2cc(C)c(F)cc2NC(=O)c2ccc(-c3cc(O)ccc3C)c(C)c2)CC1,"binding, competition with immobilised ligand",,1 µM,,remaining binding,100%
Cc1ccc(C(=O)Nc2ccc(CN3CCN(C)CC3)c(C(F)(F)F)c2)cc1C#Cc1cnc2cccnn12,"target engagement, NanoBRET",human cells,,,Hill slope,1.11
Cc1ccc(-c2c(/C=C(\C#N)C(=O)NC(C)C)n(CCCO)c3ncnc(N)c23)cc1,"cell-free assay, competition with immobilised ligand",,1 µM,,remaining binding,100%
Nc1ncc2c(n1)-c1c([nH]c3ccc(C4=CCOCC4)cc13)CCC2,"binding, competition with immobilised ligand",,1 µM,,remaining binding,100%
C=C1C[C@]2(C(=O)OC)C=C(C(=O)Nc3cccc(C(=O)Nc4ccc(Nc5nccc(-c6cccnc6)n5)c(C)c4)c3)C(=O)[C@H]1C2,"binding, competition with immobilised ligand",,1 µM,,remaining binding,100%
Cc1cnc2nc1Nc1cccc(c1)COC/C=C/COCc1cc(ccc1OCCN1CCOCC1)N2,"binding, competition with immobilised ligand",,0.1 µM,,remaining binding,35%

# Excerpt of the above:
Structure (SMILES),assay,test system,conditions,scale,measurement,result
CNC(=O)C1CCN(c2cc(C)c(F)cc2NC(=O)c2ccc(-c3cc(O)ccc3C)c(C)c2)CC1,"binding, competition with immobilised ligand",,1 µM,,remaining binding,100%
